Experimental data pooled from the literature.
Each numbered part is a random draw from the data of one study; scales do not carry over between parts.

Study 1 — technique: Spec-seq; molecule type: double-stranded DNA, one strand shown; matrix: in vitro; tested at: not given; setting: whole probe, mean of replicates; relative to: not given; reading: lower = stronger binding; constant ends, left off below: GAGTCGTCTCGTCAGCAC … CCGTAGAGCACTCAGGTC
Target: POU, POU domain (Salpingoeca helianthica)
Target sequence (chain): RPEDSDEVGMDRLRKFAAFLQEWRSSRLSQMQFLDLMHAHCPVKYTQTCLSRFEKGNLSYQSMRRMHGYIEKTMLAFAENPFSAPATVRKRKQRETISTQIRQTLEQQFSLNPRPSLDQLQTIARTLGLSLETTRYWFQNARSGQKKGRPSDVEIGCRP
Oligonucleotide	relative binding energy
ATGCTGTG	1.04 ln ratio
ATCCAGAT	1.32 ln ratio
ATGTCTAT	1.15 ln ratio
CTTCTAAT	0.473 ln ratio
ATGCCTAT	1.25 ln ratio

Study 2 — technique: protein binding microarray; molecule type: double-stranded DNA, one strand shown; matrix: in vitro; tested at: not given; relative to: not given; reading: higher = stronger binding
Target: Histone acetyltransferase KAT6A, winged helix 2, GST fusion (KAT6A, Homo sapiens, UniProt Q92794, residues 85-181)
Setting: 8-mer, flanks averaged, mean of 2 arrays, mostly near background
Residues (chain): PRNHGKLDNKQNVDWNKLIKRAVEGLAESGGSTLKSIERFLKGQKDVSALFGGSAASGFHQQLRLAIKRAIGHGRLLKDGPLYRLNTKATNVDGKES
Oligonucleotide	E-score
ATATTAAG	0.13
AGGCATGA	-0.12
GAGCGTCC	-0.0208
ATTATCAG	0.00015
GCGTTCTA	-0.00677
ACAGCTAG	-0.267

Study 3 — technique: RNA Bind-n-Seq; molecule type: RNA; matrix: in vitro; tested at: not given; setting: RNA with constant flanks, ends assumed; relative to: input RNA pool; reading: higher = stronger binding
Target: RING finger protein unkempt homolog, zinc fingers 1-6, GST-SBP tag (UNK, Homo sapiens, UniProt Q9C0B0, residues 30-357)
Chain of UniProt Q9C0B0 (30-357, looked up): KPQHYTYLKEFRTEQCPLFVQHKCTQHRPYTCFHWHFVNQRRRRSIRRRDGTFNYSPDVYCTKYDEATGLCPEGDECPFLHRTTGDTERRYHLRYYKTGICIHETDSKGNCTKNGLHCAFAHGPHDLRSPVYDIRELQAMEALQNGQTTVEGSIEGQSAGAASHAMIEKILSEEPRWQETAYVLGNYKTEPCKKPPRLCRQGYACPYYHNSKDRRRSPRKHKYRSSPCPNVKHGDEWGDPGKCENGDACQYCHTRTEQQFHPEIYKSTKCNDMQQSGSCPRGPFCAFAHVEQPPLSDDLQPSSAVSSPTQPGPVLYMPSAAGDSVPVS
Oligonucleotide	bound/input enrichment
GGGAGUUCUACAGUCCGACGAUCCUCAGAAUAAAGUCAGAGCUUGGAUUAAAUUUCUAUCAGCAAGUGAAGCUGGUCAAUUUCAUCCGAAGGCAAGUUCACCAAUGCAAGUGCUACAGUUGCCAUGUAAAGUUCAAAUCCAAACAACAGAGGAUUGAGCAUCA	0.136 ratio
GGGAGUUCUACAGUCCGACGAUCCUGGUGUGCCAGGAGAGUACUAAAUUUAAGAAUGUUUGGACAACUCAUUCCAAGUCACCUACCGCCUAUGAGAGAGGAAGAAUAUAUUUUGACAAUUACCGGUGCUGUGUCAGCAGUGUUCAACAGAGGAUUGAGCAUCA	0.485 ratio
GGGAGUUCUACAGUCCGACGAUCUCGUGGGCCCCUGAGGACGCCUGGAUGGGCACUCACCCUAAGUAUCUAGAAAUGAUGGAAUCCGAUACCGGAGAUGCCACCCAAGUUUAUGUAGCGUUCUUGGUUUACCUGGACCUCAUGCAACAGAGGAUUGAGCAUCA	0.28 ratio
GGGAGUUCUACAGUCCGACGAUCUUGCUUUUCACAUCCAUUUCCCCUCCUUCCCAUGGGCAGAGGACCAGGCUGUAGGAAAUCCCGUUAUUUACAGGAACUUCAUCAUAAUUUGGAGGGAAGCUCUUGGAGCUGUGAGUUCUCCAACAGAGGAUUGAGCAUCA	0.511 ratio

Mixed results
Molecule	target	assay	test system	setting	how to read	quantity	value
PhoQ, residues 284 288 289 292 302 303 TTSMTC	PhoP, residues 12 14 15 18 19 LWHCS (Escherichia coli, UniProt P23836)	Sort-seq, refers to: YFP reporter	E. coli	PhoQ-PhoP variant library, with: 10 µM Mg2+	relative to: high Mg2+ state, higher = stronger signaling	fold induction	12.3
